Measured values of several laboratories.
Protocols differ between the studies behind these lines. ± gives the spread as reported.
Cell line: PC-3

CC(=C(c1ccc(O)cc1)c1ccc(Cl)cc1)c1ccc(Cl)cc1  GI50 (cell growth or viability): 770 nM
COc1cc(/C=C/C(=O)/C=C(O)/C=C/c2ccc(OCC(=O)N3CCOCCOCCOCC3)c(OC)c2)ccc1OCC(=O)N1CCOCCOCCOCC1  inhibition (cell growth or viability, SRB; 5 µM): 11.4%
CC1=C(C2=C(C)C(=O)c3c(cc(O)c(O)c3C(C)C)C2=O)C(=O)c2cc(O)c(O)c(C(C)C)c2C1=O (racemic)  EC50 (cell growth or viability, ATP luminescence; 72 h): 4670 nM
COC(C(=NO)C(O)C(C)O)C1Cc2cc3cc(OC4CC(OC5CC(O)C(O)C(C)O5)C(O)C(C)O4)c(C)c(O)c3c(O)c2C(=O)C1OC1CC(OC2CC(OC3CC(C)(O)C(O)C(C)O3)C(O)C(C)O2)C(O)C(C)O1 (centres unmarked)  GI50 (cell growth or viability; 72 h): 518 nM
COc1cc(CNC(=O)C[C@H](C)CCC=C(C)C)ccc1OCc1cn(-c2ccc(Cl)c(Cl)c2)nn1  growth percent (SRB; 10 µM, 48 h): 65.9%
Cc1nn(-c2ccc(S(=O)(=O)N[C@H](CO)CC(C)C)cc2)c2nn3nnnc3nc12  apoptotic cells (PI/Hoechst staining; 2 µM, 24 h): 17 ± 1.4%
O=C(O)CCC(NP(=O)(O)OCCC[C@@H](NC(=O)CC[C@H](NC(=O)CCCCCNC(=O)c1ccc([18F])cc1)C(=O)O)C(=O)O)C(=O)O (some centres unmarked)  cell uptake (concentration not given, 4 h): 0.04 ± 0.01%
Cc1ccc(C(C)C)cc1.O=C([N-]c1nc2ccccc2[nH]1)c1cnccn1.[Cl-].[Ru+2]  selectivity index (cytotoxicity, MTT; relative to: KMST-6 over PC-3): > 2
COC(C(=NOCc1ccc([N+](=O)[O-])cc1)C(O)C(C)O)C1Cc2cc3cc(OC4CC(OC5CC(O)C(O)C(C)O5)C(O)C(C)O4)c(C)c(O)c3c(O)c2C(=O)C1OC1CC(OC2CC(OC3CC(C)(O)C(O)C(C)O3)C(O)C(C)O2)C(O)C(C)O1 (centres unmarked)  GI50 (cell growth or viability; 72 h): 113 nM
COc1cc(CNC(=O)C[C@H](C)CCC=C(C)C)ccc1OCc1cn(-c2ccccc2)nn1  growth percent (SRB; 10 µM, 48 h): 83.1%
COC(C(=NOCCCCc1c[nH]c2ccccc12)C(O)C(C)O)C1Cc2cc3cc(OC4CC(OC5CC(O)C(O)C(C)O5)C(O)C(C)O4)c(C)c(O)c3c(O)c2C(=O)C1OC1CC(OC2CC(OC3CC(C)(O)C(O)C(C)O3)C(O)C(C)O2)C(O)C(C)O1 (centres unmarked)  GI50 (cell growth or viability; 72 h): 140 nM
C=C1CC(OC(=O)C(C)(O)CCl)C2C(=C)C(=O)OC2C2C1CC(O)C2(O)CCl (centres unmarked)  cells in S phase (flow cytometry; IC50, 48 h): 48.4 ± 1.7%
CCCCCCCCCCCCCCCC(=O)N=C(N)NCCC[C@H](NC(=O)[C@H](CC(C)C)NC(=O)[C@@H](CC(C)C)NC(=O)[C@H](Cc1ccc(O)cc1)NC(=O)[C@H](CO)NC(=O)[C@H](Cc1c[nH]c2ccccc12)NC(=O)[C@H](Cc1c[nH]cn1)NC(=O)[C@@H]1CCC(=O)N1)C(=O)N1CCC[C@H]1C(=O)NCC  cell proliferation (WST-1; 50 µM, 4 days, 2D monolayer, daily dosing; relative to: control): 86.7%
CC(=O)OC[C@H]1O[C@@H](Sc2sc(C(=O)c3ccc(C)cc3)c(N)c2-c2nc3ccccc3s2)[C@H](OC(C)=O)[C@@H](OC(C)=O)[C@@H]1OC(C)=O  growth (SRB; 10 µM, 48 h; relative to: untreated): 63.2%
COC(C(=NOCCCc1c[nH]c2ccccc12)C(O)C(C)O)C1Cc2cc3cc(OC4CC(OC5CC(O)C(O)C(C)O5)C(O)C(C)O4)c(C)c(O)c3c(O)c2C(=O)C1OC1CC(OC2CC(OC3CC(C)(O)C(O)C(C)O3)C(O)C(C)O2)C(O)C(C)O1 (centres unmarked)  GI50 (cell growth or viability; 72 h): 69 nM
CC(C)C[C@H](NC(=O)C[C@H](O)[C@H](CC(C)C)NC(=O)[C@H](Cc1c[nH]cn1)NC(=O)CNC(=O)[C@@H](NC(=O)[C@H](C)NC(=O)[C@H](Cc1c[nH]c2ccccc12)NC(=O)[C@H](CCC(N)=O)NC(=O)[C@@H](Cc1ccccc1)NC(=O)CCOCCOCCOCCNC(=O)CN1CCN(CC(=O)O)CCN(CC(=O)O)CC1)C(C)C)C(N)=O [gallium-68 labelled]  retained radioactivity (cellular efflux; concentration not given, 60 min efflux after 1 h loading): 50%
[Cl][Pd-2]1([Cl])[N+](=Cc2ccc[nH]2)Cc2cccc[n+]21  viability reduction (MTT; 100 µg/mL, 24 h): > 80%
COc1cc(CNC(=O)C[C@H](C)CCC=C(C)C)ccc1OCc1cn(-c2ccc(Br)cc2)nn1  growth percent (SRB; 10 µM, 48 h): 81.4%
CN(C)c1cccc2c(S(=O)(=O)NCCCCCC(=O)NO)cccc12  cells in G2 phase (propidium iodide flow cytometry; 1.54 µM): 15.7%
CCCCCCCCCC1N=C(N)N=C(N)N1c1ccc(Cl)cc1.Cl (racemic)  growth inhibition (concentration not given): ≤ 100%
C=CCON=C(C(O)C(C)O)C(OC)C1Cc2cc3cc(OC4CC(OC5CC(O)C(O)C(C)O5)C(O)C(C)O4)c(C)c(O)c3c(O)c2C(=O)C1OC1CC(OC2CC(OC3CC(C)(O)C(O)C(C)O3)C(O)C(C)O2)C(O)C(C)O1 (centres unmarked)  GI50 (cell growth or viability; 72 h): 155 nM
COc1cc(CNC(=O)C[C@H](C)CCC=C(C)C)ccc1OCc1cn(-c2cccc(C(F)(F)F)c2)nn1  growth percent (SRB; 10 µM, 48 h): 82.5%
CCON=C(C(O)C(C)O)C(OC)C1Cc2cc3cc(OC4CC(OC5CC(O)C(O)C(C)O5)C(O)C(C)O4)c(C)c(O)c3c(O)c2C(=O)C1OC1CC(OC2CC(OC3CC(C)(O)C(O)C(C)O3)C(O)C(C)O2)C(O)C(C)O1 (centres unmarked)  GI50 (cell growth or viability; 72 h): 114 nM
C[N+]1(CC(=O)OC2CCCCCCCCCCC2)CCCCC1  ED50 (cell viability, CellTiter Blue; 96 h): 6100 nM
C[C@]1(CO)C2CC[C@@]3(CO3)[C@@H](/C=C/C3=CCOC3=O)[C@]2(C)CC[C@H]1O (some centres unmarked)  inhibition (cell growth or viability, MTT; 20 µM, 48 h): 0%
COC(C(=NOC(C)(C)C)C(O)C(C)O)C1Cc2cc3cc(OC4CC(OC5CC(O)C(O)C(C)O5)C(O)C(C)O4)c(C)c(O)c3c(O)c2C(=O)C1OC1CC(OC2CC(OC3CC(C)(O)C(O)C(C)O3)C(O)C(C)O2)C(O)C(C)O1 (centres unmarked)  GI50 (cell growth or viability; 72 h): 839 nM
CC(=O)OCC1=CCC2[C@]3(C)COC(c4ccccc4)O[C@@H]3CC[C@@]2(C)[C@@H]1/C=C/C1=CCOC1=O (some centres unmarked)  inhibition (cell growth or viability, MTT; 20 µM, 48 h): 29%
CCCCCCC(=O)NCCNC(=O)[C@]1(C)[C@@H]2CC[C@]3(C)[C@H](C(=O)C=C4[C@@H]5[C@@H](C)[C@H](C)CC[C@]5(C)CC[C@]43C)[C@@]2(C)CC[C@H]1OC(C)=O  IC50 (cell growth or viability, MTT; 48 h): 13800 nM
COc1cc(CNC(=O)C[C@H](C)CCC=C(C)C)ccc1OCc1cn(-c2ccccc2F)nn1  growth percent (SRB; 10 µM, 48 h): 87.9%
O=C(NO)c1ccc(Cn2sc3ccccc3c2=O)cc1  acetylated α-tubulin level (Western blot; concentration not given, 18 h): increased
COc1cc(CNC(=O)C[C@H](C)CCC=C(C)C)ccc1OCc1cn(-c2ccc(Cl)cc2Cl)nn1  growth percent (SRB; 10 µM, 48 h): 85%
N=C(N)NCCC[C@@H]1NC(=O)[C@H](CCCCN)NC(=O)[C@@H](Cc2ccc(O)cc2)NC(=O)[C@H](CC(=O)O)NC(=O)CNC1=O  total growth inhibition (MTT; 48 h): > 100 µM
COc1cc(CNC(=O)C[C@H](C)CCC=C(C)C)ccc1OCc1cn(-c2ccc([N+](=O)[O-])cc2)nn1  growth percent (SRB; 10 µM, 48 h): 85.5%
CC(=O)OC[C@H]1O[C@@H](Sc2sc(C(=O)c3ccc(Br)cc3)c(N)c2-c2nc3ccccc3s2)[C@H](OC(C)=O)[C@@H](OC(C)=O)[C@@H]1OC(C)=O  growth (SRB; 10 µM, 48 h; relative to: untreated): 90.8%
CC(C)OC1(CO)CCC2C(C)(CO)C(O)CCC2(C)C1C=CC1=CCOC1=O (centres unmarked)  inhibition (cell growth or viability, MTT; 20 µM, 48 h): 55%
CC/C=C\C/C=C\C/C=C\C/C=C\C/C=C\C/C=C\CCC(=O)Nc1ccn(C2OC(CO)C(O)C2(F)F)c(=O)n1 (centres unmarked)  GI50 (cell growth or viability, SRB): 10700 nM
CC(=O)O[C@@H]1CC[C@@]2(C)[C@@H](CC[C@]3(C)[C@@H]2C(=O)C=C2[C@@H]4[C@@H](C)[C@H](C)CC[C@]4(C)CC[C@]23C)[C@@]1(C)C(=O)NCCNC(=O)CCCCCCCCCCBr  IC50 (cell growth or viability, MTT; 48 h): > 30000 nM
COC(C(=NOCC(=O)NCCc1c[nH]c2ccccc12)C(O)C(C)O)C1Cc2cc3cc(OC4CC(OC5CC(O)C(O)C(C)O5)C(O)C(C)O4)c(C)c(O)c3c(O)c2C(=O)C1OC1CC(OC2CC(OC3CC(C)(O)C(O)C(C)O3)C(O)C(C)O2)C(O)C(C)O1 (centres unmarked)  GI50 (cell growth or viability; 72 h): 1030 nM

Excerpt of the above:
CC(C)C[C@H](NC(=O)C[C@H](O)[C@H](CC(C)C)NC(=O)[C@H](Cc1c[nH]cn1)NC(=O)CNC(=O)[C@@H](NC(=O)[C@H](C)NC(=O)[C@H](Cc1c[nH]c2ccccc12)NC(=O)[C@H](CCC(N)=O)NC(=O)[C@@H](Cc1ccccc1)NC(=O)CCOCCOCCOCCNC(=O)CN1CCN(CC(=O)O)CCN(CC(=O)O)CC1)C(C)C)C(N)=O [gallium-68 labelled]  retained radioactivity (cellular efflux; concentration not given, 60 min efflux after 1 h loading): 50%
[Cl][Pd-2]1([Cl])[N+](=Cc2ccc[nH]2)Cc2cccc[n+]21  viability reduction (MTT; 100 µg/mL, 24 h): > 80%
COc1cc(CNC(=O)C[C@H](C)CCC=C(C)C)ccc1OCc1cn(-c2ccc(Br)cc2)nn1  growth percent (SRB; 10 µM, 48 h): 81.4%
CN(C)c1cccc2c(S(=O)(=O)NCCCCCC(=O)NO)cccc12  cells in G2 phase (propidium iodide flow cytometry; 1.54 µM): 15.7%
CCCCCCCCCC1N=C(N)N=C(N)N1c1ccc(Cl)cc1.Cl (racemic)  growth inhibition (concentration not given): ≤ 100%
C=CCON=C(C(O)C(C)O)C(OC)C1Cc2cc3cc(OC4CC(OC5CC(O)C(O)C(C)O5)C(O)C(C)O4)c(C)c(O)c3c(O)c2C(=O)C1OC1CC(OC2CC(OC3CC(C)(O)C(O)C(C)O3)C(O)C(C)O2)C(O)C(C)O1 (centres unmarked)  GI50 (cell growth or viability; 72 h): 155 nM
